# Published values gathered from unrelated publications.
# Lines come from different studies, so protocols differ.
# Organism: Pseudomonas aeruginosa
SMILES,assay,system,setting,scale,MIC
CC(C)C1NC(=O)C(C(=O)NC(C(=O)NC2C(=O)N3C2SC(C)(C)C3C(=O)O)c2ccccc2)=C1O (stereo not drawn),broth microdilution,TonB-dependent receptor mutant,PA two-allele library,,100 µg/mL
CC[C@H](C)[C@H](NC(=O)[C@H](CC(C)C)NC(=O)[C@H](CCCCN)NC(=O)[C@@H](NC(=O)[C@H](C)NC(=O)[C@H](CCC(=O)O)NC(=O)[C@H](Cc1c[nH]cn1)NC(=O)[C@@H](NC(=O)[C@H](CCCCN)NC(=O)[C@H](CCC(N)=O)NC(=O)[C@H](Cc1ccccc1)NC(=O)[C@@H](NC(=O)[C@H](CCCCN)NC(=O)[C@H](CCCCN)NC(=O)[C@H](CC(C)C)NC(=O)[C@H](C)N)C(C)C)[C@@H](C)CC)[C@@H](C)CC)C(N)=O,broth microdilution,4891 resistant,"18 h, 37 °C",,8 µM
CC[C@H](C)[C@H](N)C(=O)N[C@@H](CC(C)C)C(=O)NCC(=O)N[C@H](CCCNC(=N)N)C(=O)N[C@H](C(=O)N[C@@H](Cc1ccccc1)C(=O)N[C@@H](CCCCN)C(=O)NCC(=O)N[C@H](C(=O)N[C@@H](CCCCN)C(=O)N[C@@H](CC(=O)O)C(=O)N[C@H](C(=O)N[C@@H](CC(C)C)C(N)=O)[C@@H](C)CC)[C@@H](C)CC)[C@@H](C)CC,broth microdilution,"ATCC BAA-427, Mueller-Hinton broth","16 h, 37 °C",,50 µM
CC(C)(C)Oc1ccc(CC2NC(=O)C(C(=O)NC(C(=O)NC3C(=O)N4C3SC(C)(C)C4C(=O)O)c3ccccc3)=C2O)cc1 (stereo not drawn),broth microdilution,TonB-dependent receptor mutant,PA two-allele library,,25 µg/mL
Cn1c(=O)cnc2ccc(F)c(CCNC[C@H]3CN(c4cnc5c(n4)NC(=O)CO5)C(=O)O3)c21,,ATCC 27853,,,0.5 µg/mL
CC[C@H](C)[C@H](NC(=O)[C@H](CC(C)C)NC(=O)[C@H](CCCCN)NC(=O)[C@@H](NC(=O)[C@H](C)NC(=O)[C@H](CCC(=O)O)NC(=O)[C@H](Cc1c[nH]cn1)NC(=O)[C@@H](NC(=O)[C@H](CCCCN)NC(=O)[C@H](CCC(N)=O)NC(=O)[C@H](Cc1ccccc1)NC(=O)[C@@H](NC(=O)[C@H](CCCCN)NC(=O)[C@@H](N)CCCCN)C(C)C)[C@@H](C)CC)[C@@H](C)CC)C(N)=O,broth microdilution,4007 resistant,"18 h, 37 °C",,32 µM
CCCCCCCCCC(=O)N[C@@H](Cc1c[nH]c2ccccc12)C(=O)N[C@H](CC(N)=O)C(=O)N[C@@H](CC(=O)O)C(=O)N[C@@H]1C(=O)NCC(=O)N[C@@H](CCCN)C(=O)N[C@@H](CC(=O)O)C(=O)N[C@H](C)C(=O)N[C@@H](CC(=O)O)C(=O)NCC(=O)N[C@H](CO)C(=O)N[C@@H]([C@H](C)CC(=O)O)C(=O)N[C@@H](CC(=O)c2ccccc2N)C(=O)O[C@@H]1C,,ATCC 27853,24 h,,> 100 µM
CC[C@H](C)[C@H](NC(=O)CNC(=O)[C@H](CC(=O)O)NC(=O)[C@H](CCCNC(=N)N)NC(=O)[C@@H](NC(=O)[C@H](CC(N)=O)NC(=O)[C@H](CCCNC(=N)N)NC(=O)CNC(=O)[C@@H](NC(=O)[C@H](CCCCN)NC(=O)[C@H](CCC(=O)O)NC(=O)[C@@H](NC(=O)[C@H](CCCCN)NC(=O)[C@H](CCCCN)NC(=O)[C@H](Cc1ccccc1)NC(=O)[C@@H](NC(=O)[C@H](CCCCN)NC(=O)[C@H](Cc1c[nH]c2ccccc12)NC(=O)[C@@H](N)CCCNC(=N)N)[C@@H](C)CC)[C@@H](C)CC)C(C)C)C(C)C)C(=O)N[C@H](C(=O)N[C@@H](CCCCN)C(=O)N[C@@H](C)C(=O)NCC(=O)N1CCC[C@H]1C(=O)N[C@@H](C)C(=O)N[C@H](C(=O)N[C@@H](C)C(=O)N[C@H](C(=O)N[C@H](C(=O)NCC(=O)N[C@@H](CCC(N)=O)C(=O)N[C@@H](C)C(=O)N[C@@H](C)C(=O)N[C@H](C(=O)N[C@H](C(=O)N[C@H](C(=O)N[C@@H](CCC(=O)O)C(N)=O)C(C)C)C(C)C)[C@@H](C)O)C(C)C)C(C)C)C(C)C)[C@@H](C)CC,,"KCCM 11328, Mueller-Hinton broth","16 h, 37 °C",growth inhibition over 99%,16 µM
CC[C@H](C)[C@H](NC(=O)[C@H](Cc1ccc(O)cc1)NC(=O)[C@@H](NC(=O)[C@H](Cc1c[nH]c2ccccc12)NC(=O)[C@@H]1CCCN1C(=O)[C@@H](NC(=O)[C@H](C)N)[C@@H](C)CC)[C@@H](C)CC)C(=O)N[C@@H](Cc1ccc(O)cc1)C(=O)N[C@@H](CCCNC(=N)N)C(=O)N[C@@H](CC(C)C)C(=O)N[C@@H](CC(C)C)C(=O)N[C@@H](CCCNC(=N)N)C(=O)N[C@@H](CCCCN)C(=O)NCC(=O)O,broth microdilution,PAO1,"18 h, 37 °C",,15 µM
CC(C)(C)OCC1NC(=O)C(C(=O)NC(C(=O)NC2C(=O)N3C2SC(C)(C)C3C(=O)O)c2ccccc2)=C1O (stereo not drawn),,pvdS mutant,,,25 µg/mL
CC[C@H](C)[C@H](NC(=O)[C@H](CC(C)C)NC(=O)[C@H](CCCNC(=N)N)NC(=O)[C@@H](N)CCCNC(=N)N)C(=O)N[C@@H](CCCNC(=N)N)C(=O)N[C@H](C(=O)N[C@@H](CC(=O)O)C(=O)N[C@H](C(=O)NCC(=O)N1CCC[C@H]1C(=O)N[C@H](C(=O)N[C@H](C(=O)N[C@@H](Cc1ccc(O)cc1)C(=O)N[C@@H](CC(=O)O)C(=O)N[C@@H](Cc1ccc(O)cc1)C(=O)N[C@@H](Cc1ccccc1)C(=O)N[C@@H](CCCCN)C(=O)N[C@@H](CC(=O)O)C(=O)N[C@@H](CCC(N)=O)C(=O)N[C@@H](CC(C)C)C(=O)N[C@@H](CC(C)C)C(=O)N[C@@H](CCCCN)C(=O)N[C@@H](CCCCN)C(N)=O)[C@@H](C)CC)[C@@H](C)CC)[C@@H](C)O)[C@@H](C)O,,"KCTC 1637, Mueller-Hinton broth",24 h,,> 128 µM
CC[C@H](C)[C@H](NC(=O)[C@H](CCCNC(=N)N)NC(=O)[C@H](CCCCN)NC(=O)[C@H](Cc1c[nH]c2ccccc12)NC(=O)[C@H](CCC(N)=O)NC(=O)[C@H](Cc1ccccc1)NC(=O)[C@H](Cc1c[nH]c2ccccc12)NC(=O)[C@@H](NC(=O)[C@H](CCCCN)NC(=O)[C@@H](NC(=O)[C@H](CCC(N)=O)NC(=O)[C@@H](N)CCCNC(=N)N)[C@@H](C)CC)[C@@H](C)CC)C(=O)N[C@@H](CCCCN)C(=O)N[C@@H](Cc1c[nH]c2ccccc12)C(=O)N[C@@H](CCCNC(=N)N)C(=O)N[C@@H](CCCNC(=N)N)C(=O)O,,ATCC 27853,,,1.5 µM
CC1(C)SC2C(NC(=O)C(NC(=O)C3=C(O)C(Cc4ccsc4)NC3=O)c3ccccc3)C(=O)N2C1C(=O)O (stereo not drawn),,pvdA mutant,,,50 µg/mL
CC[C@H](C)[C@H](NC(=O)CNC(=O)[C@H](CC(=O)O)NC(=O)[C@H](CCC(=O)O)NC(=O)[C@@H](NC(=O)[C@H](CC(N)=O)NC(=O)[C@H](CCCNC(=N)N)NC(=O)CNC(=O)[C@@H](NC(=O)[C@H](CCCCN)NC(=O)[C@H](CCC(=O)O)NC(=O)[C@@H](NC(=O)[C@H](CCCCN)NC(=O)[C@H](CCCCN)NC(=O)[C@H](Cc1ccccc1)NC(=O)[C@@H](NC(=O)[C@H](CCCCN)NC(=O)[C@H](Cc1c[nH]c2ccccc12)NC(=O)[C@@H](N)CCCNC(=N)N)[C@@H](C)CC)[C@@H](C)CC)C(C)C)C(C)C)C(=O)N[C@H](C(=O)N[C@@H](CCCCN)C(=O)N[C@@H](C)C(=O)NCC(=O)N1CCC[C@H]1C(=O)N[C@@H](C)C(=O)N[C@H](C(=O)N[C@@H](C)C(=O)N[C@H](C(=O)N[C@H](C(=O)NCC(=O)N[C@@H](CCC(N)=O)C(=O)N[C@@H](C)C(=O)N[C@@H](C)C(=O)N[C@H](C(=O)N[C@H](C(=O)N[C@H](C(=O)N[C@@H](CCCCN)C(N)=O)C(C)C)C(C)C)[C@@H](C)O)C(C)C)C(C)C)C(C)C)[C@@H](C)CC,,"KCCM 11328, Mueller-Hinton broth","16 h, 37 °C",growth inhibition over 99%,32 µM
CC[C@@H](C)[C@@H](N)C(=O)N[C@@H](C(=O)N[C@H](Cc1ccc(O)cc1)C(=O)N[C@@H](C(=O)N[C@H](CCN)C(=O)N[C@H](CC(C)C)C(=O)N[C@H](CO)C(=O)N[C@H](CCN)C(=O)N[C@@H](C(=O)N[C@H](CCN)C(=O)N[C@H](Cc1c[nH]cn1)C(=O)N[C@H](CCN)C(=O)N[C@H](C)C(=O)N[C@H](CCN)C(=O)N[C@H](CCN)C(N)=O)[C@H](C)CC)[C@H](C)CC)[C@H](C)CC,broth microdilution,"CDC 0246, Mueller-Hinton broth",,,4 µg/mL
CC1(C)SC2C(NC(=O)C(NC(=O)C3=C(O)C(Cc4ccc(F)cc4)NC3=O)c3ccccc3)C(=O)N2C1C(=O)O (stereo not drawn),,pvdS mutant,,,12.5 µg/mL
CC[C@H](C)[C@H](NC(=O)[C@H](CCCNC(=N)N)NC(=O)[C@H](CCCNC(=N)N)NC(=O)[C@@H](N)CCCNC(=N)N)C(=O)N[C@@H](CO)C(=O)N[C@@H](Cc1ccccc1)C(=O)N[C@@H](CC(C)C)C(=O)NCC(=O)N[C@@H](CO)C(=O)N[C@@H](CCCCN)C(=O)N[C@H](C(=O)N[C@H](C(=O)N[C@H](C(=O)N[C@@H](CC(C)C)C(=O)N[C@@H](CC(C)C)C(=O)N[C@@H](CCCCN)C(=O)N[C@@H](CCCNC(=N)N)C(=O)N[C@@H](CCCNC(=N)N)C(=O)N[C@@H](CCCNC(=N)N)C(=O)N[C@@H](CCCNC(=N)N)C(N)=O)C(C)C)C(C)C)C(C)C,broth microdilution,ATCC 27853,highest value reported,,16 µM
CC1(C)SC2C(NC(=O)C(NC(=O)C3=C(O)CN(c4ccccc4)C3=O)c3ccccc3)C(=O)N2C1C(=O)O (stereo not drawn),broth microdilution,TonB-dependent receptor mutant,PA two-allele library,,50 µg/mL
CC[C@H](C)[C@H](NC(=O)CNC(=O)[C@H](CC(=O)O)NC(=O)[C@H](C)NC(=O)[C@@H](NC(=O)[C@H](CC(N)=O)NC(=O)[C@H](CCCNC(=N)N)NC(=O)CNC(=O)[C@@H](NC(=O)[C@H](CCCCN)NC(=O)[C@H](CCC(=O)O)NC(=O)[C@@H](NC(=O)[C@H](CCCCN)NC(=O)[C@H](CCCCN)NC(=O)[C@H](Cc1ccccc1)NC(=O)[C@@H](NC(=O)[C@H](CCCCN)NC(=O)[C@H](Cc1c[nH]c2ccccc12)NC(=O)[C@@H](N)CCCNC(=N)N)[C@@H](C)CC)[C@@H](C)CC)C(C)C)C(C)C)C(=O)N[C@H](C(=O)N[C@@H](CCCCN)C(=O)N[C@@H](C)C(=O)NCC(=O)N1CCC[C@H]1C(=O)N[C@@H](C)C(=O)N[C@H](C(=O)N[C@@H](C)C(=O)N[C@H](C(=O)N[C@H](C(=O)NCC(=O)N[C@@H](CCC(N)=O)C(=O)N[C@@H](C)C(=O)N[C@@H](C)C(=O)N[C@H](C(=O)N[C@H](C(=O)N[C@H](C(=O)N[C@@H](CCCCN)C(N)=O)C(C)C)C(C)C)[C@@H](C)O)C(C)C)C(C)C)C(C)C)[C@@H](C)CC,,"KCCM 11328, Mueller-Hinton broth","16 h, 37 °C",growth inhibition over 99%,16 µM
CC1(C)SC2C(NC(=O)C(NC(=O)C3=C(O)C(c4ccccc4)NC3=O)c3ccccc3)C(=O)N2C1C(=O)O (stereo not drawn),broth microdilution,TonB-dependent receptor mutant,PA two-allele library,,25 µg/mL
CC(C)C[C@H](NC(=O)[C@@H](NC(=O)[C@H](CCCNC(=N)N)NC(=O)[C@H](CCC(N)=O)NC(=O)[C@H](Cc1ccccc1)NC(=O)[C@H](Cc1ccc(O)cc1)NC(=O)[C@H](CC(N)=O)NC(=O)[C@H](Cc1c[nH]c2ccccc12)NC(=O)[C@@H](NC(=O)[C@H](CCCNC(=N)N)NC(=O)[C@H](CCCCN)NC(=O)[C@@H](N)Cc1ccccc1)C(C)C)C(C)C)C(=O)N[C@H](C(=O)N[C@@H](CCCCN)C(=O)N[C@@H](CCCCN)C(=O)N[C@@H](Cc1ccc(O)cc1)C(=O)N[C@@H](C)C(N)=O)C(C)C,broth dilution,ATCC 27853,,,> 100 µM

# For quick reference, copied from above:
SMILES,assay,system,setting,scale,MIC
CC1(C)SC2C(NC(=O)C(NC(=O)C3=C(O)C(Cc4ccsc4)NC3=O)c3ccccc3)C(=O)N2C1C(=O)O (stereo not drawn),,pvdA mutant,,,50 µg/mL
CC[C@H](C)[C@H](NC(=O)CNC(=O)[C@H](CC(=O)O)NC(=O)[C@H](CCC(=O)O)NC(=O)[C@@H](NC(=O)[C@H](CC(N)=O)NC(=O)[C@H](CCCNC(=N)N)NC(=O)CNC(=O)[C@@H](NC(=O)[C@H](CCCCN)NC(=O)[C@H](CCC(=O)O)NC(=O)[C@@H](NC(=O)[C@H](CCCCN)NC(=O)[C@H](CCCCN)NC(=O)[C@H](Cc1ccccc1)NC(=O)[C@@H](NC(=O)[C@H](CCCCN)NC(=O)[C@H](Cc1c[nH]c2ccccc12)NC(=O)[C@@H](N)CCCNC(=N)N)[C@@H](C)CC)[C@@H](C)CC)C(C)C)C(C)C)C(=O)N[C@H](C(=O)N[C@@H](CCCCN)C(=O)N[C@@H](C)C(=O)NCC(=O)N1CCC[C@H]1C(=O)N[C@@H](C)C(=O)N[C@H](C(=O)N[C@@H](C)C(=O)N[C@H](C(=O)N[C@H](C(=O)NCC(=O)N[C@@H](CCC(N)=O)C(=O)N[C@@H](C)C(=O)N[C@@H](C)C(=O)N[C@H](C(=O)N[C@H](C(=O)N[C@H](C(=O)N[C@@H](CCCCN)C(N)=O)C(C)C)C(C)C)[C@@H](C)O)C(C)C)C(C)C)C(C)C)[C@@H](C)CC,,"KCCM 11328, Mueller-Hinton broth","16 h, 37 °C",growth inhibition over 99%,32 µM
